Results from different studies.
Every numbered part comes from another study and shows a few of its results, in no order.

Series 1 — technique: RNA Bind-n-Seq; molecule type: RNA; sample: in vitro; tested at: 365 nM; relative to: no-protein control; reading: higher = stronger binding
Target: RNA binding protein fox-1 homolog 2, RRM domain, GST-SBP tag (RBFOX2, Homo sapiens, UniProt O43251-10, residues 100-194)
Notes: natural RNA segment, single round, ends assumed
All sequences stand within: GGGAGUUCUACAGUCCGACGAUC … UGGAAUUCUCGGGUGCCAA
| Strand | RBNS enrichment (R) |
| --- | --- |
| AAUGAUGCAAGAAAAUCAAAUGGGAAUCUGGGGACCCAACACAACAUCCUGAAGAUUAUUAAAAGGAAAAGAUGCUGAUUGGUACAUAAAUCUUUUACAUGGCCUUGGUC | 1.03 |
| UGUUUAAAAGUAAAUGAUUUGGGAACUGACAAUGUGUCAGAAAAUAUAUGUUCAUUUAUCAUUUUAAAAUCUUGUAUAAUUUGCCACUGUAUUCAUUUAUGCCUAAAUCU | 0.751 |
| UAUCAUAUCAUGCUUCAACUAUUAAAUUAAGCCCAUCAUAUCAUAGCACUAAAAAGAUUGAGUUAAAAAUAAGAUUUAAAAAAUAUAUAUUGAUUAAAAUGUACCACUAG | 0.856 |
| CAGCUCCCAACUGUGGCCAUGGCUUAGUUGCAUAAAAGCAGGCAUGACUGGCUGUUAGGAGGUAUGGUGUGAAAGGGUAUCAGUCCAGGUAUGGCCCGGGAACUCUCUGG | 2.86 |
| ACCCCCAACCCUGCUCUUGGGUACCCAGAGGGGUCAUUUCUGAAUCCCUUGCCCAGAGGACAGACCUCCGGGGCCCAUCUUGGCCCUGGGAAAGGGCUCUCCUCUCUGAU | 0.385 |
| UUGUCACUGGACUGUCUCUGGGCCUGCUUAGACGGGGAUUGACACACAGAAUGGAACUGUGAGUGGAGAGAUGAAUAAGUUGCCCCCCCAGCCCCCCUUCCCAUUUGUUU | 0.374 |
| AAAAUCUUUGGGGAACAAACUUAUUUAACUGUAGAGUAAGUUUCCUAUUAUGAAAUAAGUAAAGGUAGAAAAAUAAUGGUCUGUUGUUACUUAAGAAUACUCCUGGCAUA | 0.72 |
| ACUGAGUAGGCGGCGAUUUUUGUAUGUUAUGAACAUGCAGUUCAUUAUUUUGUGGUUCUAUUUUACUUUGUACUUGUGUUUGCUUAAACAAAGUGACUGUUUGGCUUAUA | 0.527 |

Series 2 — technique: RNA Bind-n-Seq; molecule type: RNA; sample: in vitro; tested at: not given; relative to: input RNA pool; reading: higher = stronger binding
Target: RING finger protein unkempt homolog, zinc fingers 1-6, GST-SBP tag (UNK, Homo sapiens, UniProt Q9C0B0, residues 30-357)
Chain of UniProt Q9C0B0 (30-357, looked up): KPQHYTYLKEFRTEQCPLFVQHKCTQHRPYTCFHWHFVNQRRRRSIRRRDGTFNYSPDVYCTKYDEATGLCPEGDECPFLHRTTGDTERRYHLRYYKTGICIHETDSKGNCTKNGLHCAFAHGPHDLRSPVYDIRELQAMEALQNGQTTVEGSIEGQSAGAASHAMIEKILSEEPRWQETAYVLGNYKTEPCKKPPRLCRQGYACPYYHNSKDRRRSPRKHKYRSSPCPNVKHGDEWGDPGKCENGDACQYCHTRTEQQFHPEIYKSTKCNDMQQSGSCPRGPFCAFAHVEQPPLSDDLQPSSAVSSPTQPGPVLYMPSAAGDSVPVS
Notes: RNA with constant flanks, human-mouse chimeric sites, ends assumed
All sequences stand within: GGGAGUUCUACAGUCCGACGAUC … CAACAGAGGAUUGAGCAUCA
| Strand | bound/input enrichment [ratio] |
| --- | --- |
| GAUCAUGAACCACCAUCAGAAAUGAAGAUGAGAUUACCCAAGACGAGCAAAACAGCUGCGCUACAGAAAAGUAAACUUAACCUUGCACCAAUUUCUCAUGAAGAUACAAGUUAAGAGAGC | 0.294 |
| CUGGCCUGGCCCUCCCCUCUAGUGACCUUUCGUAUAGUCACUGCUUCUGCAUCAGAUAUUUUUAGCUGCAACUCCCUACUGGGUGGGGCACCCAUUUCAGGCAGAAGGUUUUGGUACCCU | 0.53 |
| CGGAGCCCUCCUCUCCCCCAGGCCCGAGAUAUAACCCACCAGUGCCUUUUGUCUUCCCGUUAGCUUUGUCAAUCACGCCUGUCCUCUCACGCCCACACCAAGUGCCCAAAGUGGGGAGGG | 20.5 |
| GACUUUGGGACUGGUCCUCGCAACGCAGCCUUCUAUAGCCCUCAUGGACAUAUAUUAGUAUUAGCUGGAUUUGGAAAUCUGAGGGGACAAAUGGAAGUAUGGGAUGUUAAAAACUACAAG | 0.535 |
| CUUCGGAAAAAAAAAUUACCUUUUCUGACAGUGCUUUCCCUCCCAUAGAUCCACGUUCACACUAGAAGAGCAAAGGCUUUGCACGGAGCUCAAACAUCUGAUGAAGAAAGAUUUCUGAGA | 1.12 |
| CAGCUGCGAGGCCGCGGUUUCCCCCUGGGCCUCCCCAGCAGCAGCCAUGGGCAUCAAAUUUUUAGAAGUUAUUAAACCAUUCUGUGCAGUUCUACCAGAAAUUCAGAAACCGGAAAGGAA | 3.14 |
| AGAAUCUGUGACUGGCUUUACUUAAUUGGUCAUUGAUAGCUUAACAAACAUGGAGAUAAGAUUAGAAAUCUUGACAUCAACAAGUAUUAAGCAGAAAAAACCAUGGCCACGUGUCUCCUG | 0.148 |
| GGCUGCUGGUGACUGUCCUGGAGUGGCUGGAGUUCCCCCGGAACCUGGGCCAGACUAAUUAUAGAAAAUGCCAAGUAGGAAGUUUGUUGAGGGUGAAGUGGUCAGAGGCCGAUGGCCUGG | 3.33 |

Series 3 — technique: RNA Bind-n-Seq; molecule type: RNA; sample: in vitro; tested at: 1 µM; notes: whole 134-nt RNA, ends assumed; with: 150 mM KCl; relative to: input library; reading: higher = stronger binding
Target: Ras GTPase-activating protein-binding protein 1, RRM domain (G3BP1, Homo sapiens, UniProt Q13283)
Chain of UniProt Q13283 (whole entry, looked up): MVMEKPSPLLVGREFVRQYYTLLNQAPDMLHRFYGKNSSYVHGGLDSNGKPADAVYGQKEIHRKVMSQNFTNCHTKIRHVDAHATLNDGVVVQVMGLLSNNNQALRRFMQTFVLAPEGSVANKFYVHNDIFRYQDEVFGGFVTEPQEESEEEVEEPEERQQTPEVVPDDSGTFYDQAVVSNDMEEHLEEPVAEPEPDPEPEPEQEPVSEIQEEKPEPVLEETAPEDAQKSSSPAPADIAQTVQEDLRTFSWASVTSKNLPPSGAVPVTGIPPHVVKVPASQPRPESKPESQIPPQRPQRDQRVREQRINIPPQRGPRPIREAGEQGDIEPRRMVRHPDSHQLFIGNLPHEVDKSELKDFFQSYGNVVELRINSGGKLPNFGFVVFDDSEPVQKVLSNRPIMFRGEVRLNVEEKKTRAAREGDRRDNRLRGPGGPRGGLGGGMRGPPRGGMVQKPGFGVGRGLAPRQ
All sequences stand within: GGGAGUUCUACAGUCCGACGAUC … UGGAAUUCUCGGGUGUCAAGG
| Strand | log2 enrichment |
| --- | --- |
| CAAGUCCUGUGCUACACAUCGUAUGUACCGAAUCGGGUUUGGGGUUUGGGUUUGGGAAAGUAUUAUGUUACGCCGUUCGGAUCUGCACUU | 0.579 |
| GUCCUGUGCUACACAUCGUAUGUACCGAAUCGGGGUUUGGGGAAAAAGGGGUUUGGGGAAAGUAUUAUGUUACGCCGUUCGGAUCUGCAC | 1.67 |
| AGUCCUGUGCUACACAUCGUAUGUACCGAAUCAAACCCCCCCAAAUUUAAACCCAAAAAAGUAUUAUGUUACGCCGUUCGGAUCUGCACU | -0.0455 |
| UGGCCCUGGUGGAAUGCGGGGAGGAAGAGGUGGCCUCAUGGAUCGUGGUGGUCCCGGUGGAAUGUUCAGAGGUGGCCGUGGUGGAGACAG | 0.834 |
| CAAGUCCUGUGCUACACAUCGUAUGUACCGAAUCGGUUUUUUUGGAGGAAAAAGGAAAGUAUUAUGUUACGCCGUUCGGAUCUGCACUUC | -0.165 |
| AAGUCCUGUGCUACACAUCGUAUGUACCGAAUCGGAAAAGGGGAAAAGGAAAAGGGAAAGUAUUAUGUUACGCCGUUCGGAUCUGCACUU | -0.204 |
| UGAAAAUGCUUUCAUGUUAAUUGUGUACACACAUUUCAUCUGUAUCCCUGUUUCUUUUCUCCCUACAGAAACAUAUGAGGAUUUUGAUAC | -0.126 |
| CUGUGCUACACAUCGUAUGUACCGAAUCGGGGAAAAAAAGGAAAAAAAGGGGAAAAAAAGGAAAGUAUUAUGUUACGCCGUUCGGAUCUG | 0.0556 |
| UCCUCAAGUCCUGUGCUACACAUCGUAUGUACCGAAUCGGUGGAGGAAAGGAAAGUAUUAUGUUACGCCGUUCGGAUCUGCACUUCCAGC | -0.116 |

Series 4 — technique: aptamer microarray, sandwich; molecule type: DNA with 2'F-ANA; sample: in vitro; tested at: 200 nM; with: Cy3 exosite-II aptamer, 400 nM; reading: higher = stronger binding; strand: GGTTGGTGTGGTTGG
Target: Prothrombin, mature alpha-thrombin (F2, Homo sapiens, UniProt P00734)
Notes: whole 15-mer aptamer, many near background
| Modification | mean fluorescence intensity |
| --- | --- |
| 2'F-ANA at 1 5 7 8 11 12 | 101 a.u. |
| 2'F-ANA at 1 3 5 6 8 9 13 15 | 58.2 a.u. |
| 2'F-ANA at 3 4 7 9 10 13 15 | 280 a.u. |
| 2'F-ANA at 2 5 11 12 13 14 | 53.8 a.u. |
| 2'F-ANA at 1 2 6 8 9 10 12 13 14 | 48.7 a.u. |
| 2'F-ANA at 1 2 4 7 10 15 | 51.8 a.u. |
| 2'F-ANA at 3 4 10 13 15 | 278 a.u. |
| 2'F-ANA at 1 12 14 15 | 75.7 a.u. |
| 2'F-ANA at 1 3 6 7 9 11 15 | 189 a.u. |
| 2'F-ANA at 2 3 4 10 11 12 | 348 a.u. |
| 2'F-ANA at 1 2 3 4 5 6 7 8 9 10 11 12 13 15 | 59.6 a.u. |
| 2'F-ANA at 3 7 9 10 13 15 | 459 a.u. |
| 2'F-ANA at 2 4 5 6 8 10 13 15 | 55 a.u. |
| 2'F-ANA at 4 5 6 8 9 10 11 12 15 | 55.1 a.u. |
| 2'F-ANA at 3 4 5 6 9 10 13 | 46.7 a.u. |
| 2'F-ANA at 1 3 4 5 8 9 10 11 12 13 | 58.2 a.u. |
| 2'F-ANA at 1 2 12 13 15 | 311 a.u. |

Excerpt of the above (series 4):
| Modification | mean fluorescence intensity |
| --- | --- |
| 2'F-ANA at 3 4 7 9 10 13 15 | 280 a.u. |
| 2'F-ANA at 1 2 4 7 10 15 | 51.8 a.u. |
| 2'F-ANA at 1 3 4 5 8 9 10 11 12 13 | 58.2 a.u. |
